Assay results from different studies.
Each line is one published result; not all experiments were run side by side. Several values in a cell are separate wells, animals, samples, runs or records. ± marks the error that the study gave.
Chain of UniProt P08922 (whole entry, looked up): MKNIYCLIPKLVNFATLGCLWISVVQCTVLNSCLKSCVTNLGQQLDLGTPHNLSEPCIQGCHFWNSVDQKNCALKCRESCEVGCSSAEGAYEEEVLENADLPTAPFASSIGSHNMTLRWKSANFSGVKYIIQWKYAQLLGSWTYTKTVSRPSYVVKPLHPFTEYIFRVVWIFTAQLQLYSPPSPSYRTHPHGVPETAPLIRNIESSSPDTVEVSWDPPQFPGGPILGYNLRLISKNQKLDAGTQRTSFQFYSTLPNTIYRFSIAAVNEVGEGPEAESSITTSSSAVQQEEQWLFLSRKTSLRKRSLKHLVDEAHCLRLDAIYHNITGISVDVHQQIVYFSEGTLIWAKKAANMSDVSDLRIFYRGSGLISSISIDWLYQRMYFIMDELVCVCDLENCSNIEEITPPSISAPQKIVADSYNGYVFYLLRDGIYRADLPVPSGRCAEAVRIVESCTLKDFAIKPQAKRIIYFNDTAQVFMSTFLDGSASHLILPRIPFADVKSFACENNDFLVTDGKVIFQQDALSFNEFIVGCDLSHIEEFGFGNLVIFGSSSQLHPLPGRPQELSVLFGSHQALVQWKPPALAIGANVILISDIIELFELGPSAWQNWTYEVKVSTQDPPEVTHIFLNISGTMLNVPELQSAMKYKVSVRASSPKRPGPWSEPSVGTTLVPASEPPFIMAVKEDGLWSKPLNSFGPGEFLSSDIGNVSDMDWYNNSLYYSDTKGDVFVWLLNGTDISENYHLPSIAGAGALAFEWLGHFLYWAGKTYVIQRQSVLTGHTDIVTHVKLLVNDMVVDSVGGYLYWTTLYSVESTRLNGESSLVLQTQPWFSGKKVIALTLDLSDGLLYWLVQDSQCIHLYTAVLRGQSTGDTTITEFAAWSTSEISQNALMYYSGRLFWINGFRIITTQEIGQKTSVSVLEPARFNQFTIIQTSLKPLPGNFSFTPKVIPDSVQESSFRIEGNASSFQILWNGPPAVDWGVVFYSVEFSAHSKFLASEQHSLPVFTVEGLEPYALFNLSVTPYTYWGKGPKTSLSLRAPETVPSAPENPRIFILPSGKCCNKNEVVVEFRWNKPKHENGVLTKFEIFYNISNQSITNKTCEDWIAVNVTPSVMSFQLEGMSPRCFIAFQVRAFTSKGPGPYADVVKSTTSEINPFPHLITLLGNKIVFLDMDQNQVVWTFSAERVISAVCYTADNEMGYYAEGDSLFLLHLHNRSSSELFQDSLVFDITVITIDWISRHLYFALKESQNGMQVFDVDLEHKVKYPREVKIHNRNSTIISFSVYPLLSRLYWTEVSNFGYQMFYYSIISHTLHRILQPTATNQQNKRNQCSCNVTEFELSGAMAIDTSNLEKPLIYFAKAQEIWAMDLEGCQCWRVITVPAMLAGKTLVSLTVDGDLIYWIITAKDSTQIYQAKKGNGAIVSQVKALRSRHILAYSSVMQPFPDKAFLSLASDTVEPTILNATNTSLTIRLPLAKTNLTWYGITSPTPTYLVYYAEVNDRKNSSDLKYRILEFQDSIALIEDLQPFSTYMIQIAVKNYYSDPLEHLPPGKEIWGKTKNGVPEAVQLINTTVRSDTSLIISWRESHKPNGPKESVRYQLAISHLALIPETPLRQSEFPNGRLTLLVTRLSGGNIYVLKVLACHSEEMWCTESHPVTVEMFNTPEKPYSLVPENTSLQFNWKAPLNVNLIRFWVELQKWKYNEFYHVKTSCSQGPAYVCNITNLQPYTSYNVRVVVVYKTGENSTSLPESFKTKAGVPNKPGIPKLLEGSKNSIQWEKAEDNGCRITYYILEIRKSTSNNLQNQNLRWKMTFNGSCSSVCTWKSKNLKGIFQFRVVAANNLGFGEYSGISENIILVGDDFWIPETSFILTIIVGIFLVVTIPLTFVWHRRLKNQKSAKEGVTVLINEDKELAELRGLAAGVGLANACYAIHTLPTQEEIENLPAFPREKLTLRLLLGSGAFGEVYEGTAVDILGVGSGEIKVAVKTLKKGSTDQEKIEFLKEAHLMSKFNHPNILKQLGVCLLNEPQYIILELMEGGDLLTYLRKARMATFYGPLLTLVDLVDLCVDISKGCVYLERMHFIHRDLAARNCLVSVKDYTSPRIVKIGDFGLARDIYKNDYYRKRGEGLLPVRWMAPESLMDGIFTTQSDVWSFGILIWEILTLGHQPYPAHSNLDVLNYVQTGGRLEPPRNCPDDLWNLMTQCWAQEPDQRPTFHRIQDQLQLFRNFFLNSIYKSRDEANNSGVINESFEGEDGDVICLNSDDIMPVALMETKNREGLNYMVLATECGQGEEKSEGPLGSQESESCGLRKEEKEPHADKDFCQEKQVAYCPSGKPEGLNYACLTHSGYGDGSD

Compound | target or system | assay | system | conditions | how to read | quantity | value
CNc1cc(N)c(C(N)=O)c[n+]1C | – | substrate, item: methylated product | rats, plasma | oral, 30 mg/kg, 1.50 h | – | plasma concentration of product | 198 nM and 205 nM
CCN(CC)CC#CCNc1ccnc2cc(Cl)ccc12 | Salmonella typhimurium | mini-Ames test | TA102 | 125.0 µg/well, with rat liver S9 | – | mean revertants | 91 revertants/well
N#C[C@@H]1CC(F)(F)CN1C(=O)CNC(=O)c1ccnc2c(NC(=O)[C@H](CCCCNC(=O)CCOCCOCCOCCOCCOCCOCCNC(=O)CN3CCN(CC(=O)[O-])CCN(CC(=O)[O-])CCN(CC(=O)[O-])CC3)NC(=O)CCCc3ccc(I)cc3)cccc12.[177Lu+3] | – | – | human serum | 24 h, 37 °C, 177Lu-labelled | – | radiochemical stability | 92.5 ± 2.4%
OCC1OC(n2cnc3c(NCc4ccc(Br)s4)ncnc32)C(O)C1O (stereo not shown) | – | – | Beagle dogs, both sexes, blood | oral, 3 mg/kg | – | Tmax | 1.5 to 2.8 h
CN([O-])C(=O)CN1CCNCCN(CC(=O)N(C)[O-])CC1.[89Zr+4] | – | – | mouse, pancreas | intravenous, 1 h | – | tracer uptake | 0.2 %ID/g
O=C1c2sc(-c3ccc(N4CCC(CO)CC4)nc3F)nc2CCN1c1cccnc1 | – | – | CD1 mouse, brain | i.v., dose not given, 0.25 h | – | concentration | 58.7 ng/g and 40.3 ng/g and 51.5 ng/g
C/C(N)=N/C(=N\S(=O)(=O)c1ccc(C(F)(F)F)cc1)N1C[C@H](c2ccccc2)C(c2ccc(Cl)cc2)=N1 | – | – | Beagle dog, plasma | oral, 6 mg/kg | – | Tmax | 3 h
C=C1CC[C@H](OCCCNC(=O)CCOCCOCCOCCOCCOCCOCCOCCOCCOCCOCCOCCOCCOCCOCCOCCOCCOCCOCCOCCOCCOCCOCCOCCOCCOCCOCCOCCOCCOCCOCCOCCOCCOCCOCCOCCOCCNC(=O)CCN2C(=O)CC(SC[C@H](NC(=O)[C@H](Cc3ccccc3)NC(=O)[C@H](CC(N)=O)NC(=O)[C@H](Cc3c[nH]cn3)NC(=O)[C@@H](NC(=O)[C@H](CC(=O)O)NC(=O)[C@H](CCC(N)=O)NC(=O)[C@H](CC(C)C)NC(=O)[C@H](CCCCN)NC(=O)[C@H](CCCCN)NC(=O)[C@H](CCCNC(=N)N)NC(=O)[C@H](CC(C)C)NC(=O)[C@H](Cc3c[nH]c4ccccc34)NC(=O)[C@H](CCC(=O)O)NC(=O)[C@@H](NC(=O)[C@H](CCCNC(=N)N)NC(=O)[C@H](CCC(=O)O)NC(=O)[C@H](CCSC)NC(=O)[C@H](CO)NC(=O)[C@H](CC(N)=O)NC(=O)[C@H](CC(C)C)NC(=O)[C@H](Cc3c[nH]cn3)NC(=O)[C@H](CCCCN)NC(=O)CNC(=O)[C@H](CC(C)C)NC(=O)[C@H](CC(N)=O)NC(=O)[C@H](Cc3c[nH]cn3)NC(=O)[C@H](CCSC)NC(=O)[C@H](CC(C)C)NC(=O)[C@H](CCC(N)=O)NC(=O)[C@@H](NC(=O)[C@H](CCC(=O)O)NC(=O)[C@H](CO)NC(=O)[C@@H](NC(=O)[C@@H](N)CO)C(C)C)[C@@H](C)CC)C(C)C)C(C)C)C(=O)O)C2=O)C/C1=C/C=C1\CCC[C@]2(C)[C@@H]([C@H](C)CCCC(C)(C)O)CC[C@@H]12 (stereo partly shown) | – | – | male cynomolgus monkey, plasma | subcutaneous, 0.02 mg/kg, single dose | – | Tmax | 4 h
N#C[C@@H]1CC(F)(F)CN1C(=O)CNC(=O)c1ccnc2c(NC(=O)[C@@H](N)CCCCNC(=O)CCOCCOCCOCCOCCOCCOCCNC(=O)CN3CCN(CC(=O)[O-])CCN(CC(=O)[O-])CCN(CC(=O)[O-])CC3)cccc12.[177Lu+3] | – | – | PBS | 24 h, 37 °C, 177Lu-labelled | – | radiochemical stability | 98.7 ± 1.2%
O=C(Nc1cnccc1-c1ccc([18F])cc1)c1ccnc(NC(=O)C2CC2)c1 | – | ex vivo biodistribution, gamma counting | mouse, GSK-3β transgenic, late stage, right kidney | intravenous, 120 min | – | SUV | 0.74
C#CCCCC/C=C/C(=O)NC1(c2ccc(-c3nc4ccn5c(=O)[nH]nc5c4cc3-c3ccccc3)cc2)CCC1 | – | – | microsomes, liver, mouse CD-1 | 1 µM, pH 7.4, 37 °C, phosphate buffer 100 mM, together with: NADPH | – | first-order rate constant | -0.029 min⁻¹
CC(C)C[C@H](NC(=O)[C@@H](CCCCNC(=O)[C@@H](Cc1ccccc1)NC(=O)CCCCCNC(=O)CN1CCN(CC(=O)O)CCN(CC(=O)O)CCN(CC(=O)O)CC1)NC(=O)[C@H](Cc1ccc(O)cc1)NC(=O)[C@H](CO)NC(=O)[C@H](Cc1c[nH]c2ccccc12)NC(=O)[C@H](Cc1c[nH]cn1)NC(=O)[C@@H]1CCC(=O)N1)C(=O)N[C@@H](CCCNC(=N)N)C(=O)N1CCC[C@H]1C(=O)NCC(N)=O [indium-111 labelled] | – | – | female athymic nude mice, muscle | intravenous, 0.037 MBq, 4 h | – | tissue uptake | 0.02 ± 0.02 %ID/g
O=C1c2sc(-c3ccc(N4CCC(F)C4)nc3F)nc2CCN1c1cccnc1 (stereo not shown) | – | – | CD1 mouse, brain | i.v., dose not given, 1.25 h | – | concentration | 15.6 ng/g and 10.6 ng/g
Cc1nc(N)nc2c1C(=O)N[C@@H](c1ccc(F)cc1-c1cccc(O[11CH3])n1)C2 | – | ex vivo biodistribution | healthy mice, liver | 60 min post-injection, baseline, vehicle pre-treatment | – | tracer uptake | 13.4 ± 0.5 %ID
Cc1nn(-c2cccc(N)c2)c(=O)c2cnc(Nc3ccc(N4CCNCC4)cc3)nc12 | ROS1 (Homo sapiens, UniProt P08922) | enzyme activity, inhibitor | – | – | – | IC50 | > 10 µM
CCCCN1C(=O)c2cccc3c(NCCCCCCCCCCN4CCOCC4)ccc(c23)C1=O | – | – | DMSO | – | – | Stokes shift | 90 nm
CN(O)C(=O)CCC(=O)NCCCN(CCCCN(CCCNC(=O)CCC(=O)N(C)O)C(=O)CCC(=O)N(C)O)C(=O)CCC(=O)N(C)O.[89Zr] | – | – | mouse, bone | 24 h | – | tracer uptake | 0.01 %ID/g
O=C(Nc1cnccc1-c1ccc([18F])nc1)c1ccnc(NC(=O)C2CC2)c1 | – | – | FVB/NJ mice (both sexes), liver | intravenous, dose not given, 120 min | – | SUV | 6.47
CCCCCCCOc1ccc(CC[C@](N)(CO)COP(=O)(O)O)cc1C(F)(F)F | – | – | healthy men, urine and plasma | oral, 0.5 mg once daily, day 21, fed state | – | renal clearance | 0.0233 mL/min
CCCCN1C(=O)c2cccc3c(NCCCCN4CCOCC4)ccc(c23)C1=O | – | – | DMF | – | – | Stokes shift | 85 nm
CC#CC(=O)N1CCC[C@H]1c1nc(-c2ccc(C(=O)Nc3ccccn3)cc2)c2c(N)nccn12 | – | – | mouse, TMD8 tumour-bearing, plasma | 30 mg/kg twice daily, 12 h | – | trough concentration | 0.118 ng/mL
CN1CCC[C@]1(C)/C=C/S(=O)(=O)NC(=O)Nc1c2c(cc3c1CCC3)CCC2 | – | item: general and administration site disorders | human | oral, 100 mg twice daily, 14 days, multiple ascending dose | – | subjects with adverse event | 0%
CCCCN1C(=O)c2cccc3c(NCCCN4CCOCC4)ccc(c23)C1=O | – | – | toluene | – | – | Stokes shift | 67 nm

Compound | target or system | assay | system | conditions | how to read | quantity | value
CCC1CNC(CC)CN(C(C(=O)[O-])c2ccc(C(=O)[O-])cc2)C(CC)CN(CC(=O)[O-])C(CC)CN1.[Mn+2] (stereo not shown) | – | ICP-MS | BALB/c mouse, liver | intravenous, 0.05 mmol/kg, 1440 min, without anaesthesia | – | Mn content | 1.45 ± 0.36 µg/g
N#C[C@@H]1CC(F)(F)CN1C(=O)CNC(=O)c1ccnc2c(NC(=O)CCOCCOCCOCCOCCOCCOCCNC(=O)[C@H](CCCCNC(=O)CN3CCN(CC(=O)[O-])CCN(CC(=O)[O-])CCN(CC(=O)[O-])CC3)NC(=O)CCCc3ccc(I)cc3)cccc12.[177Lu+3] | – | – | human serum | 24 h, 37 °C, 177Lu-labelled | – | radiochemical stability | 98.7 ± 1.2%
C=C(NC(=O)c1csc(-c2nc3c(cc2O)-c2nc(cs2)C(=O)NC(C(C)O)C(=O)NC(=C(C)OC)c2nc(cs2)C(=O)NC2c4nc(cs4)C(=O)NC(COC(=O)c4c5c6c(cccc6n4O)COC(=O)C(OC4CC(C)(O)C(N(C)C)C(C)O4)C2OC5)c2nc-3cs2)n1)C(N)=O (stereo not shown) | – | – | Sprague-Dawley rat, male, plasma | intravenous infusion, 18 mg/kg single dose | – | clearance | 59.7 mL/min/kg
CCC1C=C(C)C(O)C(C)CC(OC)C2OC(O)(C(=O)C(=O)N3CCCCC3C(=O)OC(C(C)=CC3CCC(O)C(OC)C3)C(C)C(O)CC1=O)C(C)CC2OC (stereo not shown) | – | – | mouse C57BL/6, ear skin | topical, 10 µL of 37.1 mM, 6 h, 3% propylene glycol | – | concentration | 30700 ng/g
COc1cc(-c2nc3ccccc3s2)cc(CN2CCN(Cc3cc(-c4nc5ccccc5s4)cc(OC)c3O)CCN(C(C)C)CC2)c1O | – | UV-vis spectrophotometric titration | aqueous NaCl 0.1 M | 20 µM, 25 °C, pH 3 to 11 | – | pKa3 | 8.5
CC1(C)C(NC(=O)C(=NOC2(C(=O)O)CC2)c2csc(N)n2)C(=O)N1OS(=O)(=O)O (stereo not shown) | – | – | Sprague-Dawley rat, plasma | intravenous, 10 mg/kg | – | clearance | 8.11 ± 1.35 mL/min/kg
CNc1cc(C)c(C(N)=O)cn1 | – | – | Han Wistar rats, male, plasma | oral, 30 mg/kg, 3.00 h | – | plasma concentration | 69600 nM
Cc1cc(C(=O)NC(C)(C)C(=O)O)cc(C)n1 | – | LC-MS metabolite profiling | Sprague-Dawley rat, both sexes, plasma | oral, 100 mg/kg of parent drug, 0.25 (unit not given) | higher = more metabolite | plasma peak area | 76100 a.u.
CC(C)(C)NCC(SS(=O)(=O)O)c1ccccc1 (stereo not shown) | – | – | Swiss Webster mice, Schistosoma mansoni-infected | 600 mg/kg single dose on day 1 post-infection, perfusion day 44 post-infection | – | body weight | 32.1 g
CN(C(=O)C(C)(C)c1cc(C(F)(F)F)cc(C(F)(F)F)c1)c1cnc(N2C[C@H]3COCCN3C[C@H]2CO)cc1-c1ccc(F)cc1CO | – | – | human liver microsomes | – | – | fraction unbound in microsomes | 0.466
COc1cccc(OC)c1-c1cc(C(=O)NC2(C(=O)O)C3CC4CC(C3)CC2C4)nn1-c1ccc(C(=O)N(C)CCOCCN(C)C(=O)[C@H](CCCCNC(=O)[C@H](CC(C)C)NC(=O)C2OC2C(=O)O)NC(=O)CN2CCN(CC(=O)[O-])CCN(CC(=O)[O-])CCN(CC(=O)[O-])CC2)cc1C(C)C.[177Lu+3] (mixture of isomers) | – | – | mouse HT-29 xenograft | 72 h, biodistribution | relative to: tumour over stomach | tumour-to-stomach ratio | 35.2
COC1CN([C@H]2CC[C@H]([C@@]3(C)Oc4c(Cl)cc(C(=O)NCc5c(SC)cc(C)[nH]c5=O)c(C)c4O3)CC2)C1 | – | RNA-seq, item: SORCS2 | human, whole blood | dose not given, 24 h | relative to: pretreatment baseline | log2 fold change | 1.81
C=CC(=O)Nc1cc(Nc2nccc(-c3c[nH]c4ccccc34)n2)c(OC)cc1N(C)CCN(C)C | – | storage stability | human plasma | 30 d, on ice, MQC level | – | recovery | 52.2%
CCCCN1C(=O)c2cccc3c(NCCCCCCCCN4CCOCC4)ccc(c23)C1=O | – | – | acetonitrile | – | – | fluorescence quantum yield | 0.95
Nc1ncnc2[nH]c(/C=C/c3ccc(Cl)cc3)nc12 | – | HPLC | solution, dark | before light exposure | – | purity | 99.7%
CC(C)Cc1ccc(C(C)C(=O)NC(CCCCNC(=O)CCOCCOCCOCCOCCOCCOCCNC(=O)CN2CCN(CC(=O)[O-])CCN(CC(=O)[O-])CCN(CC(=O)[O-])CC2)C(=O)Nc2cccc3c(C(=O)NCC(=O)N4CC(F)(F)C[C@H]4C#N)ccnc23)cc1.[68Ga+3] (stereo partly shown) | – | – | human serum | 120 min, 37 °C, 68Ga-labelled | – | radiochemical stability | 98.67 ± 0.4%
COc1cccc(OC)c1-c1cc(C(=O)NC2(C(=O)O)C3CC4CC(C3)CC2C4)nn1-c1ccc(C(=O)NCCNC(=O)[C@H](CCCCNC(=O)[C@H](CC(C)C)NC(=O)C2OC2C(=O)O)NC(=O)CN2CCN(CC(=O)[O-])CCN(CC(=O)[O-])CCN(CC(=O)[O-])CC2)cc1C(C)C.[177Lu+3] (mixture of isomers) | – | – | mouse HT-29 xenograft | 72 h, biodistribution | relative to: tumour over stomach | tumour-to-stomach ratio | 43.6
COC(=O)c1ccccc1-c1c2ccc(=[N+](C)C)cc-2oc2c1ccc1cccc(O)c12 | – | – | 12.5 mM aqueous NaOH | pH 12.1, 10% DMSO | – | Stokes shift | 148 nm
CC[C@H](C)[C@@H]1NC(=O)[C@H](Cc2ccc(O)cc2)NC(=O)CCCSC[C@@H](C(=O)N(CC(=O)N[C@@H](CC(C)C)C(=O)NCC(N)=O)Cc2ccc(F)cc2)NC(=O)[C@H](CC(N)=O)NC(=O)[C@H](CCC(N)=O)NC1=O | – | – | human, plasma | intranasal, 50 µg every 3 h, 11 doses, after second dose | – | terminal half-life | 2.97 h
CCCCN1C(=O)c2cccc3c(NCCCCCCN4CCOCC4)ccc(c23)C1=O | – | – | methanol | – | – | Stokes shift | 94 nm
CCC1(CC)CC(=O)N(C2c3cc(C(=O)NC4c5ccccc5CC4O)ccc3OC2(C)COC)C(=N)N1 (stereo not shown) | – | – | male beagle dog, plasma | intravenous | – | Vd | 4.1 L/kg
CCCCN1C(=O)c2cccc3c(NCCCCCN4CCOCC4)ccc(c23)C1=O | – | – | chloroform | – | – | Stokes shift | 74 nm
CC(C)(O)c1ncc([S@](N)(=O)=NC(=O)Nc2c3c(cc4c2CCC4)CCC3)s1 | – | item: any adverse event | healthy human volunteers | oral, 25 mg twice daily, 14 days, enteric-coated tablet | – | subjects with adverse events | 63%
